Measurements collected from several papers.
Protocols differ between the studies behind these lines.
Organism: Saccharomyces cerevisiae

Compound	assay	test system	conditions	scale	endpoint	result
CC1=NNC(=S)NC(=O)C1/N=N/c1ccc(S(N)(=O)=O)cc1 (stereo not shown)			500 µg/mL		glucose uptake	81.6%
O=C(O)P(=O)(O)O	cell growth, OD600 after 16 h	parental strain (Pho84)	pH 4.3, 30 °C, with: 12 mM NaH2PO4		IC50	34 mM
O=C1/C(=C/c2cc(O)c(O)c(O)c2)Oc2cccc(O)c21		YPD medium	30 °C		MIC	> 128 µg/mL
CO[C@H]1[C@H](O[C@H]([C@H]2O[C@@H](n3ccc(=O)[nH]c3=O)[C@H](O)[C@@H]2O)[C@H](NCCCNC(=O)[C@@H](NC(=O)[C@@H](NC(=O)N[C@H](C(=O)O)C(C)C)[C@@H]2CCN=C(N)N2)[C@@H](O)C(C)C)C(=O)O)O[C@H](CN)[C@H]1O	alamar blue	BY4742			MIC50	> 35 µg/mL
Cn1cc2c3c1C(=O)C(NCCc1ccc(O)cc1)=CC3=NCC2	cell growth, liquid culture	BY4741	100 µM, 24 h		inhibition	5%
CCN(CCCS(=O)(=O)O)c1cccc(C)c1	cell growth, OD600 after 16 h	parental strain (Pho84)	16 h, pH 4.3, 30 °C, with: 12 mM NaH2PO4		IC50	> 75 mM
COC1=CC2=[N+](C)CCc3c[nH]c(c32)C1=O	cell growth, liquid culture	BY4741	100 µM, 24 h		inhibition	4.2%
CC1=NN(c2ccccc2)C(=O)C1=NNc1ccc(S(N)(=O)=O)cc1			100 µg/mL		glucose uptake	25.7%
O=C1c2[nH]cc3c2C(=NCC3)c2c(-c3ccc(O)cc3)c[nH]c21	cell growth, liquid culture	BY4741	100 µM, 24 h		inhibition	0.5%
C[S+](C)[O-]	OD600	PfPiT-expressing strain	1 %, 22 h	baseline: untreated strain	growth reduction	~11%

Repeated from above:
Compound	assay	test system	conditions	scale	endpoint	result
CO[C@H]1[C@H](O[C@H]([C@H]2O[C@@H](n3ccc(=O)[nH]c3=O)[C@H](O)[C@@H]2O)[C@H](NCCCNC(=O)[C@@H](NC(=O)[C@@H](NC(=O)N[C@H](C(=O)O)C(C)C)[C@@H]2CCN=C(N)N2)[C@@H](O)C(C)C)C(=O)O)O[C@H](CN)[C@H]1O	alamar blue	BY4742			MIC50	> 35 µg/mL
